Published values of several laboratories.
A part holds a random share of what one study measured. Changes are numbered by the printed parent chain.

Set 1 — method: RNA Bind-n-Seq; molecule type: RNA; sample: in vitro; concentration: 365 nM; relative to: no-protein control; reading: higher = stronger binding
Target: RNA binding protein fox-1 homolog 2, RRM domain, GST-SBP tag (RBFOX2, Homo sapiens, UniProt O43251-10, residues 100-194)
Notes: natural RNA segment, single round, ends assumed
Residues (chain): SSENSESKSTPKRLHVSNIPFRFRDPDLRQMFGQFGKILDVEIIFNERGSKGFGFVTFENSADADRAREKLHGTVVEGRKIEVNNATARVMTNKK
Strand | RBNS enrichment (R)
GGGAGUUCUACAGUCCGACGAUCGUCAAGGUUUAUUUUCACAUGAGUCCAGCUUGCAGCAAGUAAUCUUCAAAUAUUCCAGUAAGUUUUGAAAUAAUGAAUGCAUUGAAAAUAGCAUUGUUGGAAUUUAUUCCUGGAAUUCUCGGGUGCCAA | 1.04
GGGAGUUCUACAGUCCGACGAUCCUCUGUGUAGUCAUUCCUAAGCCCCACAGAGGGAGCGCCAACAUUUCUCACUGUGCUGCUGAGGUUCUGACCUGGUGUGUCUGACAUUGCAUCAGGCUUUGCAGAACAAAUGGAAUUCUCGGGUGCCAA | 0.791
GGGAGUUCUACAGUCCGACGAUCACUGUUAUUUUUUUUUUUUUCACAAUGUGAAACUGAAGGUCAAUAAAUUAUUAGAGAUUUUCUCUUCUUAUGUGUGUGGGUCUUCAUUUGAAUAAGACACAAUUUGAGGCUGGAAUUCUCGGGUGCCAA | 0.474
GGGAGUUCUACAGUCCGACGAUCCAGACACUUAAAGUAUUUAUGCUUAAGUGUGCAUUUUUUUAUUCUAAUAUUCCUUCUAGUCAGUGGAAAUUUGUAUUCCCAUACAAACUCAGAAUGCUAUAUUUUUAACAUGGAAUUCUCGGGUGCCAA | 0.679
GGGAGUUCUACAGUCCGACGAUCGGGAGGGACAGAUGAUUCUGUGAUGGCAUGGGUAGUGGGUAGUGACAGCCAUGUCUGCGACGAUCAGCCUCUGGAGGCUGAAUGGGAAGCAGAGCUUUCGACCCACUCUAUGGAAUUCUCGGGUGCCAA | 1.53
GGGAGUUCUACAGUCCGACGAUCAAUAGCUCCUCUCACUCUGCCUGGAGAUACUUCCUGCCUCAGAUGAGGAGCCAGAAGAAACAGAGCCCGACUUGAAUGAACUCAGCUCAGAGUUCUAAGGACCAGCAUUCUGGAAUUCUCGGGUGCCAA | 0.458
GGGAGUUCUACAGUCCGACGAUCGGAGUUACAGGCAAGUUUGGUAAAAGUUAAGCUAGUAUCAUAGUCAUUUAAAAUUGUAAUAGAUCUUAACCAUUUUCCCCCUCACCCUAACUCUCUUAUUCUGCCGCCACUGGAAUUCUCGGGUGCCAA | 0.326
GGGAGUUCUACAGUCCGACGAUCCCUUUGACAUAUCAGCCAAUACCAAUCAAGCUGACGACUCCAGACACUCCGUGUGACUGUAACAUUUCUUCAAGGAAAGUAUAGCGUCUAUGGAGUGCAGAGGGCAUGUGUGGAAUUCUCGGGUGCCAA | 0.298
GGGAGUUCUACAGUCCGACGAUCAAUAUGAAUGGAUUAAAUGUUAAAGCUUUGGUGCCUGGAAACAAUAUCAAGUAACAAUAUGAUUAUUAUUUUUUUAUUCCCCCAAAGCGGGCUUGCUGCUUCACCCUUGGUGGAAUUCUCGGGUGCCAA | 2.22
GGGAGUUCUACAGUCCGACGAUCUCUGUAGAGUUCCCAGCCUCAGUAAUGUUCCAGGCUGCUUCUUGUUCCUUUUCUACCCUUUCUAGUUCAUUUUCCAAGGUAGCUGUGAUAAAGCAUGACAUAAAAGCCCAUGGAAUUCUCGGGUGCCAA | 8.43
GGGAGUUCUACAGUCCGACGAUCAUCAUUAUUGGGUCUCUGCCUUAAAACACAUCCAAAUUUAUAUUAGAAAAAAAAAAAAACUGUAUCUUUUUCUUUGGUCACUAAGAUCCCCUGACCAUGUCUUUAUGGCCUGGAAUUCUCGGGUGCCAA | 0.852
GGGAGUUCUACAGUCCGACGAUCUAUUCUUAAUAUCCUUUUAAGAAUAUGGAGAUGAAGAUUGUUUUCUCCAAUUUUCUGUGCCAUUUUAAAUUUAACUUUGACAUCCAGCUAUAGACAGAAAUAAUAAGCCAUGGAAUUCUCGGGUGCCAA | 0.603

Set 2 — target: UBE2C UBC core domain (UniProt O00762); method: yeast two-hybrid; sample: yeast; notes: mostly zero background; relative to: not given; reading: higher = stronger interaction
B1: RNF25 RING domain (UniProt Q96BH1); chain LTDNNIPHGQCVICLYGFQEKEAFTKTPCYHYFHCHCLARYIQHMEQELKAQGQEQEQERQHATTKQKAVGVQCPVCREPLVYDLASL
B2: RNF170 RING domain (UniProt Q96K19); chain TRQQFYTDMYCPICLHQASFPVETNCGHLFCGACIIAYWRYGSWLGAISCPICRQTVTLLLTVF
B3: IRF2BPL RING domain (UniProt Q9H1B7); chain SPMANSGPLCCTICHERLEDTHFVQCPSVPSHKFCFPCSRESIKAQGATGEVYCPSGEKCPLVGSNVP
B4: UHRF2 RING domain (UniProt Q96PU4); chain CGGDPEKKCHSCSCRVCGGKHEPNMQLLCDECNVAYHIYCLNPPLDKVPEEEYWYCPSCKTDSSEVVKAGER
B5: ARK2C RING domain (UniProt Q6ZSG1); chain EGEESDTDEKCTICLSMLEDGEDVRRLPCMHLFHQLCVDQWLAMSKKCPICRVDIETQLGAD
B6: TRIM63 RING domain (UniProt Q969Q1); chain PMENLEKQLICPICLEMFTKPVVILPCQHNLCRKCANDIFQAANPYWTSRGSSVSMSGGRFRCPTCRHEVIMDRHGV
B7: RC3H2 RING domain (UniProt Q9HBD1); chain QAAQWTEFLSCPICYNEFDENVHKPISLGCSHTVCKTCLNKLHRKACPFDQTAINTDIDVL
Target sequence (chain): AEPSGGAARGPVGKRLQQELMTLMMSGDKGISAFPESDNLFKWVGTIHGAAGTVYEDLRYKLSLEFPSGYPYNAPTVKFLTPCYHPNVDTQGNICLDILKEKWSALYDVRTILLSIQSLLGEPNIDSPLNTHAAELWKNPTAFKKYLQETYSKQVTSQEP
Sequence | lacZ reporter activity
FASPPDSNFVCSVCHGVLKRPARLPCSHIFCKKCILRWLARQKTCPCCRKEVKRKKVVH (RNF151 RING domain (UniProt Q2KHN1)) | 0
QLQDIKEQTMCPVCLDRLKNMIFLCGHGTCQLCGDRMSECPICRKAIERRILLY (MIB1 RING domain (UniProt Q86YT6)) | 0
B1 (RNF25 RING domain) | 0
VTLSLTLPITCHICLGKVRQPVICINNHVFCSICIDLWLKNNSQCPACRVPITPENPCK (OBI1 RING domain (UniProt Q5W0B1)) | 0
QLRRLQEERTCKVCMDKEVSIVFIPCGHLVVCKDCAPSLRKCPICRSTIKGTVRTF (BIRC3 RING domain (UniProt Q13489)) | 0
YWAMDSTFELCKICAESNKDVKIEPCGHLLCSCCLAAWQHSDSQTCPFCRCEIKGWEAVS (CBLC RING domain (UniProt Q9ULV8)) | 0
B2 (RNF170 RING domain) | 0
B3 (IRF2BPL RING domain) | 0
B4 (UHRF2 RING domain) | 0
QHHELTSLFECPVCFDYVLPPILQCQAGHLVCNQCRQKLSCCPTCRGALTPSIRNL (SIAH2 RING domain (UniProt O43255)) | 0
B5 (ARK2C RING domain) | 0
B6 (TRIM63 RING domain) | 0
B7 (RC3H2 RING domain) | 0

Set 3 — target: CEBPE, bZIP domain (human); method: DHFR protein complementation; sample: yeast; relative to: wild-type JUN-FOS pair; reading: higher = stronger binding
Notes: single substitutions, most at no-binding floor
Parent: JUN, bZIP domain (human); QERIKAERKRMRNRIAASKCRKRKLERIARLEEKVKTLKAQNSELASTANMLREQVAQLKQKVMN; partner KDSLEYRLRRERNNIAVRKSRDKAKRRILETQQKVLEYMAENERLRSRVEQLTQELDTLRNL
Substitution | binding fitness
L52Y | -1.43 natural log
E54T | -1.23 natural log
M51H | -1.1 natural log
V56Q | -1.52 natural log
S43E | -0.844 natural log
S47L | -1.18 natural log
S43C | -1.17 natural log
E32A | -1.15 natural log
A46M | -1.1 natural log
A46Y | -1.2 natural log
A40M | -1.13 natural log
A40N | -1.11 natural log
K39S | -1.29 natural log
K36S | -1.09 natural log
A46L | -0.99 natural log
L31H | -1.46 natural log
A57Q | -1.03 natural log
A29L | -1.25 natural log
T37K | -1.01 natural log
A49R | -1.39 natural log
S47I | -1.15 natural log
R30T | -1.01 natural log
N42D | -1.47 natural log
R53S | -0.936 natural log
V56R | -1.52 natural log

Set 4 — method: DHFR PCA, deep sequencing; sample: yeast; together with: (+)-ABA 17 µM; relative to: wild-type fitted maximum; reading: higher = stronger binding
Target: ABI1, truncated, D143A, DHFR fusion (Arabidopsis thaliana)
Notes: methotrexate growth selection, single substitutions
Parent: PYL1, truncated, DHFR fusion (Arabidopsis thaliana); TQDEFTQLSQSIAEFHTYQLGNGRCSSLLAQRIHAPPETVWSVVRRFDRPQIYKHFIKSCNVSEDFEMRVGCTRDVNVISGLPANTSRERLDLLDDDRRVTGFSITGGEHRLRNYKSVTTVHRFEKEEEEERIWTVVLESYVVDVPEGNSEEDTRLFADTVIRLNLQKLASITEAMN; partner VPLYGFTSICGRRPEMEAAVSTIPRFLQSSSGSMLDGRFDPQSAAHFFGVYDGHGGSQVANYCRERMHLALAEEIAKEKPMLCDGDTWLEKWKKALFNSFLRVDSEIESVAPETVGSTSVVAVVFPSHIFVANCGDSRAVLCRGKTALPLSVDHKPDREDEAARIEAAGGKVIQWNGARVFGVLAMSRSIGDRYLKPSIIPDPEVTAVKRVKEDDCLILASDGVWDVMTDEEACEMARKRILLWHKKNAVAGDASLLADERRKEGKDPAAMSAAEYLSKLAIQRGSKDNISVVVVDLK
Substitution | relative binding score [%]
R74I | -13.1
T135V | 7.14
F5P | 64.4
R46T | 58.9
R155G | 2.77
S87E | -7.71
S104N | 10.5
E89V | -5.72
S104W | -10.2
R113I | 80.8
R90Q | 72.7
S104T | 96.6
Y141P | -20.7
V118M | 72.3
L29I | 85
V40W | -22.9
G81F | 4.95
R111G | 7.63
Q31S | 13.7
S87K | -1.04
N165A | -3.34
T106F | 86.1

Set 5 — target: CCNF, cyclin fold, Cln2 fusion (human); method: yeast growth competition, sequencing; sample: yeast; notes: strong parent motif; relative to: not given; reading: higher = stronger binding
Parent: E2F1 docking peptide (human); PPVKRRLDLETDH
Substitution | normalised enrichment score
PPVKRRLWLETDH [D8W] | 8.01
PPVKRRLDLETDS [H13S] | 6.58
PEVKRRLDLETDH [P2E] | 5.41
VPVKRRLDLETDH [P1V] | 5.48
PPVKRRLDLETDQ [H13Q] | 5.94
PPVKRRNDLETDH [L7N] | 1.23
PPVKRRLDLETDM [H13M] | 7.71
PPVKRRLDLQTDH [E10Q] | 6.75
PNVKRRLDLETDH [P2N] | 6.21
PGVKRRLDLETDH [P2G] | 6.76
PPVKRLLDLETDH [R6L] | 2.95
PPVKRRKDLETDH [L7K] | -0.462
PPVKRRLDLEHDH [T11H] | 5.26
PPVKRRLDLETCH [D12C] | 8.33
PPVKRGLDLETDH [R6G] | 1.29
PPVKRRLDLENDH [T11N] | 5.62
PPRKRRLDLETDH [V3R] | 0.751
PPVKRRLDLETDV [H13V] | 7.79
PKVKRRLDLETDH [P2K] | 7.37
PPVDRRLDLETDH [K4D] | 2.2
PPVKIRLDLETDH [R5I] | -0.048
PPVKRSLDLETDH [R6S] | 2.95
PPVKRRLYLETDH [D8Y] | 8.19
